Results from different studies.
Lines come from different studies, so protocols differ. ± gives the spread as reported. In brackets after ≈: the same amount, converted by molar mass.

The EC50 of `CC(C)C[C@H](NC(=O)[C@@H](NC(=O)[C@H](CCONC(=N)N)NC(=O)OCc1ccccc1)C(C)C)[C@@H](O)CC(=O)NCCc1ccccc1` is reported as 1070 nM (Plasmodium falciparum; parasite growth; 3D7).
`O=C[C@H](C[C@@H]1CCNC1=O)NC(=O)[C@H](CC1CCCCC1)NC(=O)OCc1cccc(Cl)c1` has an EC50 of 90 ± 10 nM (feline coronavirus; viral replication; CRFK, FIPV-1146; 36 h).
For `Cc1ccc(NC(=O)Nc2ccnc(-c3cccnc3)n2)cc1`, the EC50 was greater than 50000 nM (Leishmania major; parasite growth; promastigote).
`C(=N\Nc1nnc(N/N=C/c2ccco2)c2ccccc12)/c1ccco1` gave a parasitaemia reduction of roughly 99.7% (Plasmodium berghei; four-day suppressive test; ANKA, infected mice; oral, 20 mg/kg daily, day 4 post-infection).
The EC50 of `O=C(N[C@@H](CC1CCCCC1)C(=O)N[C@@H](C[C@@H]1CCNC1=O)C(O)S(=O)(=O)O)OCc1ccccc1` (stereo partly drawn) is reported as 20 ± 60 nM (feline coronavirus; viral replication; CRFK, FIPV-1146; 36 h).
`O=C(O)COc1ccc(Br)cc1/C=N/NC(=O)c1ccc(Cl)cc1` has a seizure severity of 1.3 ± 0.48 (Racine scale 0-5; male mice, pilocarpine-induced seizures; oral, 20 mg/kg, 2 h after pilocarpine, unit not given, added: pilocarpine 300 mg/kg i.p.; higher = more severe).
`COc1ccc(CNc2ccc(-c3ccn4c(CC5CC5)nnc4c3C(F)(F)F)cc2F)cn1` gave a plasma concentration of 2010 ng/mL (male Sprague Dawley rat, plasma; subcutaneous, 10 mg/kg, 1 h, 20% HP-β-CD vehicle pH 3).
`CC(C)C[C@H](NC(=O)OCc1ccccc1)C(=O)N[C@@H](C[C@@H]1CCNC1=O)C(=O)C(=O)NC1CCCCC1` gave an EC50 of 70 ± 20 nM (feline coronavirus; viral replication; CRFK, FIPV-1146; 36 h).
The ΔTm of `Cc1nc(C#N)cnc1Cl` is reported as 1.83 °C (Cellular tumor antigen p53, DNA-binding domain (TP53, Homo sapiens, UniProt P04637, M133L/N239Y/N268D/V203A/Y220C); differential scanning fluorimetry; 1000 µM, 30 min).
`O=C(O)COc1ccc(Br)cc1C=NNC(=O)Cc1ccccc1` (mixture of isomers) gave a seizure severity of 2.2 ± 0.42 (Racine scale 0-5; male mice, pilocarpine-induced seizures; oral, 20 mg/kg, 1 h after pilocarpine, unit not given, added: pilocarpine 300 mg/kg i.p.; higher = more severe).
With `O=[N+]([O-])c1cccc(/C=N/Nc2nnc(N/N=C/c3cccc([N+](=O)[O-])c3)c3ccccc23)c1` the parasitaemia reduction was roughly 99.8% (Plasmodium berghei; four-day suppressive test; ANKA, infected mice; oral, 20 mg/kg daily, day 4 post-infection).
`CCC[C@H](NC(=O)[C@H](CCCNC(=N)N)NC(=O)OCc1ccccc1)C(=O)N[C@@H](CC(C)C)[C@@H](O)CC(=O)NCCc1ccccc1` gave an EC50 of 3040 nM (Plasmodium falciparum; parasite growth; 3D7; 72 h, blood stage).
Under antibacterial activity, `NCCCN1CC(=O)N(Cc2ccccc2)CC(=O)N(CCCN)CC(=O)N(Cc2ccccc2)CC(=O)N(CCCN)CC(=O)N(Cc2ccccc2)CC1=O` is recorded as “inactive” (Staphylococcus aureus; USA300, MRSA; concentration not given).
`CC(C)C[C@H](NC(=O)[C@@H](NC(=O)[C@H](CCONC(=N)N)NC(=O)OCc1ccccc1)C1CCCCC1)[C@@H](O)CC(=O)NCCc1ccccc1` has an EC50 of 700 nM (Plasmodium falciparum; parasite growth; 3D7).
`O=C(N[C@@H](CC1CCCCC1)C(=O)N[C@@H](C[C@@H]1CCNC1=O)C(=O)C(=O)NC1CC1)OCc1cccc(Cl)c1` has an EC50 of 550 ± 230 nM (feline coronavirus; viral replication; CRFK, FIPV-1146; 36 h).
With `CC(C)C[C@@H]1NC(=O)[C@H](CCCN)NC(=O)[C@H](C(C)C)NC(=O)[C@@H]2CCCN2C(=O)[C@@H](Cc2ccccc2)NC(=O)[C@H](CC(C)C)NC(=O)[C@H](CCCN)NC(=O)[C@H](C(C)C)NC(=O)[C@@H]2CCCN2C(=O)[C@@H](Cc2ccccc2)NC1=O` the MIC was 15.6 µg/mL (≈ 13.7 µM) (Staphylococcus aureus; broth dilution; USA300 LAC, MRSA; 18 to 24 h, 37 °C).
The EC50 of `CC[C@H](C)[C@H](NC(=O)[C@H](CCONC(=N)N)NC(=O)OCc1ccccc1)C(=O)N[C@@H](CC(C)C)[C@@H](O)CC(=O)NCCc1ccccc1` is reported as 420 nM (Plasmodium falciparum; parasite growth; 3D7; 72 h, blood stage).
The IC50 of `Cc1cccc(-c2ccc3nc(NC(=O)C4CCCCC4)nn3c2)c1` is reported as 2000 to 10000 nM (Leishmania major; parasite growth; promastigote).

Excerpt of the above:
The ΔTm of `Cc1nc(C#N)cnc1Cl` is reported as 1.83 °C (Cellular tumor antigen p53, DNA-binding domain (TP53, Homo sapiens, UniProt P04637, M133L/N239Y/N268D/V203A/Y220C); differential scanning fluorimetry; 1000 µM, 30 min).
`O=C(O)COc1ccc(Br)cc1C=NNC(=O)Cc1ccccc1` (mixture of isomers) gave a seizure severity of 2.2 ± 0.42 (Racine scale 0-5; male mice, pilocarpine-induced seizures; oral, 20 mg/kg, 1 h after pilocarpine, unit not given, added: pilocarpine 300 mg/kg i.p.; higher = more severe).
With `O=[N+]([O-])c1cccc(/C=N/Nc2nnc(N/N=C/c3cccc([N+](=O)[O-])c3)c3ccccc23)c1` the parasitaemia reduction was roughly 99.8% (Plasmodium berghei; four-day suppressive test; ANKA, infected mice; oral, 20 mg/kg daily, day 4 post-infection).
